Results gathered from unrelated publications.
Parts stem from different laboratories: compare values within a part only.

Series 1 — method: competition protein-binding microarray; molecule type: double-stranded DNA, one strand shown; sample: in vitro; tested at: 2 µM; with: Cbf1 competitor, 0.05 µM; direction: higher = stronger binding; quantity: fluorescence intensity
Target: Phosphate system positive regulatory protein PHO4, full length, GST-tagged (PHO4, Saccharomyces cerevisiae, UniProt P07270, residues 1-312)
Setting: whole 60-bp probe, lowest competitor level
Target sequence (chain): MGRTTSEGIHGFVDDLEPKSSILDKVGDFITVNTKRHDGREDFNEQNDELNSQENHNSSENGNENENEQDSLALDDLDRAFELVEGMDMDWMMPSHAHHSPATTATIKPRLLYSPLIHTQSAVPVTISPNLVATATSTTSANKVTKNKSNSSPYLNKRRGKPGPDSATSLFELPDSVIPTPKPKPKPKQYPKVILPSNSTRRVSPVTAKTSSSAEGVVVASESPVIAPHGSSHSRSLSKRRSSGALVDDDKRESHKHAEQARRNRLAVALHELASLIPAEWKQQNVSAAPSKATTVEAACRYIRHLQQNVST
TAAGGAAAAACTCACCACGTTCTTCTGAACATGTTCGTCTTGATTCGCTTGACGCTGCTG: 11300 a.u.
TGTTGCCACATAATTGAGGCATGTTAGCAGAGCATTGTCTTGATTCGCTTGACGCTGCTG: 4580 a.u.
CTTGTACTTCAATCTCACGTTTCTCCATATGAGTCTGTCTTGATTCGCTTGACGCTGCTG: 9890 a.u.
AAATTACTAAGTTGTCCAGTGGGTGACGCCGTATGAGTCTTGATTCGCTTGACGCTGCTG: 3340 a.u.
TGCGCAACAACTTGGAAAGTGGGTGTATGTCTAGAAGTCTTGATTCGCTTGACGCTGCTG: 4150 a.u.
GGAAACTTTTTAAAGCACGTGGAAGAGATATGAAGGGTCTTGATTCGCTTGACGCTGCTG: 19300 a.u.
AAAGCGGTAATTTTTCACGTGTATTCACATATCTATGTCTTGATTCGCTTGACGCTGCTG: 13500 a.u.

Series 2 — method: universal PBM; molecule type: double-stranded DNA, one strand shown; sample: in vitro; tested at: 600 nM; direction: higher = stronger binding; quantity: E-score
Target: Sal-like protein 4, full length isoform A (SALL4, Homo sapiens, UniProt Q9UJQ4, residues 1-1053)
Chain of UniProt Q9UJQ4 (whole entry, looked up): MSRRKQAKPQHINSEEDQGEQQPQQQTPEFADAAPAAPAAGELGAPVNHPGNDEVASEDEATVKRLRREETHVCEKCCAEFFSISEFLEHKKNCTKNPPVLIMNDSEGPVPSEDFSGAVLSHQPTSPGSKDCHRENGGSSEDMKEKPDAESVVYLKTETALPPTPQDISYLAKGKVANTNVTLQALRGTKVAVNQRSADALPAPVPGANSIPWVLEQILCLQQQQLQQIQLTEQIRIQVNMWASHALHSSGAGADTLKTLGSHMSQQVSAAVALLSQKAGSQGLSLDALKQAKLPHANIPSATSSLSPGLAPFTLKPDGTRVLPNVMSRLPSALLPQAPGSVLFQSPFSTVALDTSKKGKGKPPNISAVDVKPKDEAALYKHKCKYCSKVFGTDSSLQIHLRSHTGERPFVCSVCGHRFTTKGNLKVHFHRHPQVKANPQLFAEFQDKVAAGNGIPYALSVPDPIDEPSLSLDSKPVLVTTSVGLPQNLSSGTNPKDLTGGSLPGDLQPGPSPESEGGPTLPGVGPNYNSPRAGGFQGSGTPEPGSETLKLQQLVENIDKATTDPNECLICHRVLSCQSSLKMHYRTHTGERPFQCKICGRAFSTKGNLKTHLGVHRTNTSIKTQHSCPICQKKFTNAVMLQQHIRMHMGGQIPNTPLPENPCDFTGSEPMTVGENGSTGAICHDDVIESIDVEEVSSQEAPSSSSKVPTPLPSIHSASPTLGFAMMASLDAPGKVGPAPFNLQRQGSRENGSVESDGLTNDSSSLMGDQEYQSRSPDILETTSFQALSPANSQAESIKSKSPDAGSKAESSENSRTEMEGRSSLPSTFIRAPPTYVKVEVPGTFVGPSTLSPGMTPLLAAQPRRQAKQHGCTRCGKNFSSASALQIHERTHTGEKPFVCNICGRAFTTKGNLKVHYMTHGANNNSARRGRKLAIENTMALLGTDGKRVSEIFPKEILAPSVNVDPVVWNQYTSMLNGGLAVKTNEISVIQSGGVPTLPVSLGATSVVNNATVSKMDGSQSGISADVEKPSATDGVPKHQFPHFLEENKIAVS
Setting: 8-mer, flanks averaged, mean of replicates
ATCACTAG: 0.0323
AATTGTGA: 0.267
CCTGGTCG: -0.286
ACAGTGCG: -0.165
CCGACACA: -0.147
AACTATCG: 0.0387

Series 3 — method: protein binding microarray; molecule type: double-stranded DNA, one strand shown; sample: in vitro; tested at: not given; baseline: not given; direction: higher = stronger binding; quantity: E-score
Target: Histone acetyltransferase KAT6A, winged helix 2, GST fusion (KAT6A, Homo sapiens, UniProt Q92794, residues 85-181)
Setting: 8-mer, flanks averaged, mean of 2 arrays, mostly near background
Construct (chain): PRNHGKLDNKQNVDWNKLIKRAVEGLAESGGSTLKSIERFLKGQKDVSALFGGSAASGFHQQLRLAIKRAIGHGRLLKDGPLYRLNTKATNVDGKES
GCCGGTTA: 0.17
CGGATACG: -0.059
GTCAGCTA: -0.0982
AAGGAAAC: 0.00059
AAGGCCTC: -0.122
CGTTAACG: 0.00181
AATCTGTG: -0.113
CCAACAAA: 0.127

Other studies, line by line
PhoQ, residues 284 288 289 292 302 303 HSSMNL — fold induction (PhoP, residues 12 14 15 18 19 NHFIF (Escherichia coli, UniProt P23836); Sort-seq, item: YFP reporter; E. coli; PhoQ-PhoP variant library, with: 10 µM Mg2+; baseline: high Mg2+ state, higher = stronger signaling): 8.9

A few entries again (series 1):
AAATTACTAAGTTGTCCAGTGGGTGACGCCGTATGAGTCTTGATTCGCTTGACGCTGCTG: 3340 a.u.
TAAGGAAAAACTCACCACGTTCTTCTGAACATGTTCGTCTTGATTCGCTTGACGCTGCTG: 11300 a.u.
